# Experimental data collected from several papers.
# Values joined by “and” are separate records of one study, mostly repeats; a detail may differ.
# TEC: Tyrosine-protein kinase Tec (TEC, Homo sapiens, UniProt P42680)
# TEC phosphorylated: Tyrosine-protein kinase Tec, phosphorylated (TEC, Homo sapiens, UniProt P42680)
SMILES,target,assay,system,setting,scale,quantity,value
COc1cc(Nc2nc(C)cc(-c3cnn4nc(OC)ccc34)n2)cc(C(F)(F)F)c1,TEC,"binding, competition with immobilised ligand",,1 µM,,remaining binding,78%
O=C(Cc1ccc(OCc2ccccc2)cc1)NC1(C(=O)O)CCN(C(=O)c2ccc(-c3cccc(Cl)c3)cc2)CC1,TEC phosphorylated,"enzyme activity, inhibitor",,10 µM,,activity vs control,115%
CNC(=O)C1CCN(c2cc(C)c(F)cc2NC(=O)c2ccc(-c3cc(O)ccc3C)c(C)c2)CC1,TEC,"binding, competition with immobilised ligand",,1 µM,,remaining binding,71%
CNC(=O)C[C@H](Cc1ccc(C#N)cc1)NC(=O)c1cc(-c2ccc(CN[C@H](C)c3ccc(C)cc3)o2)ccc1Cl,TEC phosphorylated,"enzyme activity, inhibitor",,1 µM,,activity vs control,99%
C[C@H]1CN(C(=O)c2cn(-c3ccnc(N)n3)c3cc(C#CC4(O)CCCCC4)ccc23)CCN1,TEC,"cell-free assay, TR-FRET",,1 µM,,inhibition,2%
O=C=[N][Ru-4]123([n]4c5ccc(O)cc5c5c6c(c7cc(F)c[n+]1c7c54)C(=O)NC6=O)[S+]1CC[S+]2CC[S+]3CC1 (stereo not shown),TEC,enzyme activity,,"100 nM, human enzyme, together with: 10 µM ATP",reference: untreated,remaining activity,102%
Cc1cccc(O[C@H]2CCC[C@@H](C(C)CNCc3ccncc3)C2)c1 (relative stereo),TEC,"enzyme activity, inhibitor",,1 µM,,inhibition,1%
Cc1ccc(-c2c(/C=C(\C#N)C(=O)NC(C)C)n(CCCO)c3ncnc(N)c23)cc1,TEC,"cell-free assay, competition with immobilised ligand",,1 µM,,remaining binding,84%
Nc1ncc2c(n1)-c1c([nH]c3ccc(C4=CCOCC4)cc13)CCC2,TEC,"binding, competition with immobilised ligand",,1 µM,,remaining binding,90%
COCC12C(=O)NC3C4(C(OC)CC1O)C1CC5(O)C(OC)C(O)C(OC(C)=O)(C1C5OC(=O)c1ccccc1)C3(O)C(OC)C24 (stereo not shown),TEC,"kinase activity, inhibitor, ProQinase kinase profiling",,25 µM,reference: control,remaining activity,81% and 96%
CN1CCN(Cc2ccc(-c3ccc(CO[C@H]4CCC[C@@H]4NC(=O)c4cc(-c5cnn(C)c5)cnc4N)cc3)cc2)CC1,TEC,"enzyme activity, inhibitor",,0.1 µM,,inhibition,7%
COc1c(Cl)cccc1Nc1c(-c2ccncc2C#C[C@@]2(C)CCCN2C(=O)/C=C/CN(C)C)[nH]c2c1C(=O)NCC2,TEC,"binding, competition with immobilised ligand",,3 µM,,remaining binding,92%
NC(=O)C[C@H]1CCc2sc3ncnc(O[C@H]4CC[C@H](N5CCOCC5)CC4)c3c21,TEC,"enzyme activity, inhibitor",,10 µM,,inhibition,10%
Nc1ncc(-c2cc(-c3cnn(CC(F)(F)F)c3)ncc2F)nc1C(=O)NC1CNCC(F)C1 (stereo not shown),TEC,enzyme activity,,1 µM,reference: DMSO control,remaining activity,96.3%
C=CC(=O)Nc1cccc(-c2cnc3[nH]cc(C(=O)NC(C)(C)C)c3n2)c1,TEC,"enzyme activity, inhibitor",,0.1 µM,,inhibition,58%
Cc1ccc(C(=O)Nc2ccc(CN3CCN(C)CC3)c(C(F)(F)F)c2)cc1C#Cc1cnc2cccnn12,TEC,"target engagement, NanoBRET",human cells,,,Hill slope,-8.91

# A few entries again:
SMILES,target,assay,system,setting,scale,quantity,value
CNC(=O)C[C@H](Cc1ccc(C#N)cc1)NC(=O)c1cc(-c2ccc(CN[C@H](C)c3ccc(C)cc3)o2)ccc1Cl,TEC phosphorylated,"enzyme activity, inhibitor",,1 µM,,activity vs control,99%
